Assay results from different studies.
Parts stem from different laboratories: compare values within a part only.

Study 1
Target: Histone acetyltransferase KAT6A, both winged helices, GST fusion (KAT6A, Homo sapiens, UniProt Q92794, residues 1-181)
Method: protein binding microarray
Molecule type: double-stranded DNA, one strand shown
Medium: in vitro
Tested at: not given
Setting: 8-mer, flanks averaged, mean of 2 arrays, mostly near background
Relative to: not given
Reading: higher = stronger binding
Construct (chain): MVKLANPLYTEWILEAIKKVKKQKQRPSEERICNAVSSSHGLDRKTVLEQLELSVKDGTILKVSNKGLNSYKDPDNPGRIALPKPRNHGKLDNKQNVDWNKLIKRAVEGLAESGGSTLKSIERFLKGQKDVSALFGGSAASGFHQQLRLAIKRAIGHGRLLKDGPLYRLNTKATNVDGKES
Sequence	E-score
ATGCCCTA	-0.243
AAGACGCT	0.157
CGAATAAA	0.031
ACGATTAA	0.046
GCACAGTA	0.000145
ATGCCTCA	-0.103
ATTATGAC	-0.0185
ACCGAGAA	0.104
CACGTGGG	-0.267
ACTGCGAT	-0.0173
ATTGGGAG	-0.219
ATGTACCA	-0.0928
CGTGACAC	0.177
CCTACTCG	-0.0637
CGGCAGGA	0.208
AGCTCCAC	-0.135
AGCTGCCA	-0.094
GGCTTGAC	-0.0751
ATGGAACC	0.0329
ACCTGAGT	-0.0779
CGGTCAGA	0.055
ATACATAT	0.029

Study 2
Target: Interferon regulatory factor 5, full length, phosphomimetic (IRF5, Homo sapiens, UniProt Q13568-2, residues 1-514, S451D/S453D/S456D/S462D)
Method: protein-binding microarray
Molecule type: double-stranded DNA, one strand shown
Medium: in vitro
Tested at: 940 nM top
Setting: 60-bp whole probe
Together with: salmon DNA 0.4 mg/ml
Relative to: random background probes
Reading: higher = stronger binding
All sequences stand within: GCCTAGCAC … GTCTTGATTCGCTTGACGCTGCTG
Sequence	fitted relative affinity [z-score]
ACCATTTTTTTTCACTATTGGTGCTAG	2.21
TTAGGATTGGGTATCGGTTAGTGCTAG	4.6
TTACGACTGCTTTTCCTTTAGTGCTAG	1.04
GACGGTATCGGGTTTCGGGCCGTGCTA	5.16
TGTGTCTGGAATTTTTAGAAGTGCTAG	-0.394
GACGGTATCGACTATCTGGACGTGCTA	4.61
TTAGGTATCGACTATCGGTTTGTGCTA	6.65
GACGGTATCCTTTTCCTGAGGTGCTAG	0.352
TATGTTCCTTTAGCACTTTGGTGCTAG	-0.0394
GACGGTACCGGGTTTCGGGACGTGCTA	2.31
GACGGTATCGATTTCGGGACGTGCTAG	7.66
TTAGGACTGCTTATGCTTTAGTGCTAG	-0.236
TATTACCTCATCTTCCTCTGCGTGCTA	1.28
GACGGTCTCGGTCTAGGGACGTGCTAG	4.07
TTTTAAAATGGACACTGTACAGTGCTA	-0.349
TTAGATTTCAGAATCGATTAGTGCTAG	0.526
TTTGCTCTGTGCATAGTTCTGTGCTAG	-0.331
TCATGTGTACATCTCTCACTGTGCTAG	0.337
GACGATTTAAGTTTCGAGACGTGCTAG	4.13
GAGCAGAGGCTGATGTATGTGTGCTAG	-0.7
TCAGCTCCCTTTCTCTCACTGTGCTAG	0.929
GGCACCCAAGCTCTTGTTTGGTGCTAG	-0.325
TTAGGTTTCGGTCTCGGATAGTGCTAG	14.2
TCAATTTTGAGACTCATACTGTGCTAG	0.0526
CATATATTCACTATAGTGTGGTGCTAG	-0.0736

Study 3
Target: Fragile X messenger ribonucleoprotein 1, C-terminal low-complexity region (Fmr1, Mus musculus, UniProt P35922)
Method: RNA Bind-n-Seq
Molecule type: RNA
Medium: in vitro
Tested at: 200 nM
Setting: whole 134-nt RNA, ends assumed
Together with: 150 mM KCl
Relative to: input library
Reading: higher = stronger binding
All sequences stand within: GGGAGUUCUACAGUCCGACGAUC … UGGAAUUCUCGGGUGUCAAGG
Sequence	log2 enrichment
AGUCCUGUGCUACACAUCGUAUGUACCGAAUCGGCCCCCGGCCCCCGGGCCCCCGGGGAAAGUAUUAUGUUACGCCGUUCGGAUCUGCAC	-0.472
GCAGGAAGUAAAAACAAAUGGAAAUGCUUCGGAUAGUGGCAGGGGUGGGGGUUGCUAAGGAAAGGGUGGGAUGGGAGUGGAUAAAGAGUU	0.31
CCUGUGCUACACAUCGUAUGUACCGAAUCGGGGCCCCCCGGGGCCCCCCGGCCCCCCGGGGAAAGUAUUAUGUUACGCCGUUCGGAUCUG	-1.07
UGGCCCUGGUGGCAUGCGGGGAGGAAGAGGUGGUCUCAUGGAUCGUGGUGGUCCCGGUGGAAUGUUCAGAGGUGGCCGUGGUGGAGACAG	0.0844
UCAAGUCCUGUGCUACACAUCGUAUGUACCGAAUCGGGGCCGGCCGGGCCGGGGAAAGUAUUAUGUUACGCCGUUCGGAUCUGCACUUCC	-0.0817
AGUCCUGUGCUACACAUCGUAUGUACCGAAUCGGGUGGGAAAAAAAGGGAAAAAGGGAAAGUAUUAUGUUACGCCGUUCGGAUCUGCACU	0.27
UAACUUUAGAGGAGGAUCUGAUGGAUAUGGCAGUGGACGUGGAUUUGGGGAUGGCUAUAAUGGGUAUGGAGGAGGACCUGGAGGUGGCGA	0.255
CAAGUCCUGUGCUACACAUCGUAUGUACCGAAUCAAAUUUAAACCCAAACCCAAAAAAGUAUUAUGUUACGCCGUUCGGAUCUGCACUUC	-0.144
CCUCAAGUCCUGUGCUACACAUCGUAUGUACCGAAUCGGCGGGGCGGGGCGGGAAAGUAUUAUGUUACGCCGUUCGGAUCUGCACUUCCA	1.04
CUGUGCUACACAUCGUAUGUACCGAAUCGGGGUUUUUGGGGUUUUUGGGGAAAAAAAGGGGAAAGUAUUAUGUUACGCCGUUCGGAUCUG	-0.0883
CCUGUGCUACACAUCGUAUGUACCGAAUCGGGGUUUGGGGAAAAAAAGGGGAAAAAGGGGAAAGUAUUAUGUUACGCCGUUCGGAUCUGC	0.0811
GUCCUGUGCUACACAUCGUAUGUACCGAAUCGGGGAAAGGGGAAAAAGGGGAAAGGGGAAAGUAUUAUGUUACGCCGUUCGGAUCUGCAC	0.319
GCAGGAAGUAAAAACAAAUGGAAAUGCUUCGGAUAGUGGCAGGGGUGGGGGUUGCUAAGGAAAGGGUGGGAUGGGAGUUGGUAAAGAGUU	0.183
UCCUCAAGUCCUGUGCUACACAUCGUAUGUACCGAAUCGGGAGGAGGGGAGGAAAGUAUUAUGUUACGCCGUUCGGAUCUGCACUUCCAG	0.244

Study 4
Target: RNA binding protein fox-1 homolog 2, RRM domain, GST-SBP tag (RBFOX2, Homo sapiens, UniProt O43251-10, residues 100-194)
Method: RNA Bind-n-Seq
Molecule type: RNA
Medium: in vitro
Tested at: 365 nM
Setting: natural RNA segment, single round, ends assumed
Relative to: no-protein control
Reading: higher = stronger binding
All sequences stand within: GGGAGUUCUACAGUCCGACGAUC … UGGAAUUCUCGGGUGCCAA
Target sequence (chain): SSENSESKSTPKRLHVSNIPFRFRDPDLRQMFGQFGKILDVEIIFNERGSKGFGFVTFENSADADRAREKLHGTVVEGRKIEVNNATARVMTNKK
Sequence	RBNS enrichment (R)
GUUUCUUUAUUAGAUAAGAGUGUAUUACCAUUAAAGUCAUUAGUAUAAUAUUGCUUUCAAAAAGAAAUGGUAGACAAAACUAUAAUCCAGCAUCUUUUAUUGCAUUGGAA	0.644
GAGCCAAGGCAAGGAUUUGUGUUUGCCAAAAAUGUUCUGGGGACCCAGCCAGUGUGGGUCUGAACAUCCCCGCCCACCCCCAGACUGCAUUCUCAUCAGGGUUUCUUGUG	0.699
CAUCAGUAGGUAAAAUACAUAAUGUUACAUAGUGUAAUAUGAUAUGAUGUGAUUAAAUUAUAGUUCCUGCUGUUAAAUUGCCUUUUGAAAACUUGGCUCCAGGGUUGGUG	0.7
UGCUCCAGAGUGUCCCAGCCAACCCUCGGAAGAUGGGAUUGCCAGUCAGCCCUGCCUCACCAUGCCUGCAGGAGGCUGUCCAGGGAGCAGGUCUGUGUGCCCAUCAGCAG	0.697
CCAGAGUGUUCUCAGUAUGUCAGAGAAAGUGCCACAGCAUUAGGACGGGAGCUUGGAGAACGUUUUCUAGAAAAGGGUUAGCUUCCUGUUGGCAUGAAAUUUUCCAAGCA	4.05
AACCACUAUGCCAGGCCCGGAGCCUCUGAGGCAUCGGCCAGUCCAGGCCCUCAUCUGAGGUAAGAAUGUACAUCAGCUGGCAGCCCCAAGCAAGUGGCUGCAGGGACACU	0.616
UGCUCAGGGCUGAGUCUUAAAGAAGGGUUUGCCGGCCCUAACGCUGCAGCGCGUGCGCGGUGAGAGGCCCUUUUUGAGCCUGUUUACUCCUGUGGCCUUGGGCAGAACAG	0.775
GUCAGCCAUGAUGUCAUGUGUGUCAGUAGAGGGUCUCCUCUCCCUGCUGAGUAGUAUUCUAUCAUAUGGAUGGGCCUCGGGAUUUUCUUAGUUUUAAAACGAGUUGGUUU	0.898
UUAAGAUCUUACUGCUUUAUAAAGUGCUUUAUGAAUUAUAGGAAAAUAAACACAUUUUAGAUCUUAGAAAAAAACAAAAAAACAUGGGCUUGUCUUCAGGGUAGUAAAGA	1.6
CUGAUGUCAGUGAACGGAACUGAAGAGCAAGACAUGGAGCCUGGCUGGGGCUAAGCAGCCCCCUCCUCCGGAUGGCACAGGCUCUGCUAGGUUCCGGACACAGGCUUCUG	0.414
UAUUUAGGAUCUUAAGGUGUAUAAAAAGCAAACAUGACUUUGCACCUAAGUAAAUUCUGCAUUCUCAUAGUUGUGUCCCAAUUAACCAAAAAGUUGUCUCUAGAGAAAAU	0.288
CCUCCCACCCCCAUGGGUGCUAGGAGGAGGUGACUUUAUAUACCAGCUUCAUUGGGCUGCUUCCUCUGAAGGAAUCCUUGAGAGUCAGUGAAUGUUCUAUCAGCAUGAGU	1

Excerpt of the above (study 1):
Sequence	E-score
ATGGAACC	0.0329
ATTGGGAG	-0.219
ACTGCGAT	-0.0173
CGGCAGGA	0.208
GGCTTGAC	-0.0751
ATGTACCA	-0.0928
ACCTGAGT	-0.0779
